Experimental data from different studies.
Several values in a cell are separate wells, animals, samples, runs or records. ± marks the error that the study gave.

NC(=O)c1cnc2[nH]ccc2c1N[C@@H]1[C@@H]2CC3C[C@H]1C[C@@](O)(C3)C2
AUC(0-t) (healthy Caucasian men, plasma; oral, 20 mg, single dose fasted): 191 ng·h/mL

CNCc1ccc(-c2[nH]c3cc(F)cc4c3c2CCNC4=O)cc1
AUC(0-t) (human patients, plasma; oral, 300 mg once daily, day 1, 24 h, single dose, arithmetic mean): 5740 ng·h/mL

Cn1ncnc1[C@H]1c2n[nH]c(=O)c3cc(F)cc(c23)N[C@@H]1c1ccc(F)cc1
AUC(0-t) (female FVB Abcb1/Abcg2 knockout mice, plasma; oral, 0.5 mg/kg, 4 h): 790 ng·h/mL

OCCc1ccc(O)c(O)c1
AUC(0-t) (normal-weight male C57BL/6J mice, brain; oral, 200 mg/kg, 0 to 12 h, low-fat diet): 0.024 ± 0.002 nmol·min/g

CS(=O)(=O)n1cc2c(n1)CN([C@H]1CO[C@H](c3cc(F)ccc3F)[C@@H](N)C1)C2
AUC(0-t) (male human, plasma; oral, 200 mg, single dose, fasted, healthy volunteers): 155 µM·h

CCCC[C@H](NC(C)=O)C(=O)N[C@H]1CCC(=O)NC[C@@H](C(=O)N[C@@H](Cc2c[nH]c3ccccc23)C(N)=O)NC(=O)[C@H](CCCNC(=N)N)NC(=O)[C@@H](Cc2ccccc2)NC(=O)[C@H](Cc2c[nH]cn2)NC1=O
AUC(0-t) (CD Sprague-Dawley rat, female, plasma; subcutaneous, 1.0 mg/kg/day, day 1): 880 ng·h/mL

CC[C@H](C)[C@@H]1NC(=O)[C@H](Cc2ccc(O)cc2)NC(=O)[C@@H](N)CSSC[C@@H](C(=O)N2CCC[C@H]2C(=O)N[C@@H](CC(C)C)C(=O)NCC(N)=O)NC(=O)[C@H](CC(N)=O)NC(=O)[C@H](CCC(N)=O)NC1=O
AUC(0-t) (microdialysis, radioimmunoassay; C57BL/6J male mice, wild type, amygdala extracellular fluid; intranasal, 12 µg, total area from zero): 249 ± 69 pg·30 min/sample

CO[C@H]1C[C@@H]2CC[C@@H](C)[C@@](O)(O2)C(=O)C(=O)N2CCCC[C@H]2C(=O)O[C@H]([C@H](C)C[C@@H]2CC[C@@H](O)[C@H](OC)C2)CC(=O)[C@H](C)/C=C(\C)[C@@H](O)[C@@H](OC)C(=O)[C@H](C)C[C@H](C)/C=C/C=C/C=C/1C
AUC(0-t) (NOD/SCID mice, male, blood or plasma; intraperitoneal, 0.5 mg/kg every 48 h): 4280 ± 329 ng·h/mL

COc1cc2c(cc1OC)CN(CCc1ccc(NC(=O)c3cc(OC)c(OC)cc3NC(=O)c3cnc4ccccc4c3)cc1)CC2
AUC(0-t) (human, plasma; intravenous infusion, 4 mg/kg, up to 24 h post-infusion): 17300 ng·h/mL and 13500 ng·h/mL and 11400 ng·h/mL and 12700 ng·h/mL

CCCCC1(CCCC)CN(c2ccccc2)c2cc(SC)c(OCC(=O)N[C@@H](C(=O)NCC(=O)O)c3ccccc3)cc2S(=O)(=O)C1
AUC(0-t) (human, plasma; oral, 10 mg, no breakfast): 5.46 ng·h/mL

OCCc1ccc(O)cc1
AUC(0-t) (male C57BL/6J mice, brain; oral, 200 mg/kg, 0 to 12 h, low-fat diet): 1.58 ± 0.16 nmol·min/g

CCOc1ccc(Cc2cc([C@@H]3S[C@H](CO)[C@@H](O)[C@H](O)[C@H]3O)c(OC)cc2C)cc1
AUC(0-t) (human, plasma; oral, 5 mg, single dose, fasted, healthy volunteers): 1770 ng·h/mL

CC(C)=CCC[C@](C)(O[C@@H]1O[C@H](CO)[C@@H](O)[C@H](O)[C@H]1O)[C@H]1CC[C@]2(C)[C@@H]1[C@H](O)C[C@@H]1[C@@]3(C)CC[C@H](O[C@@H]4O[C@H](CO)[C@@H](O)[C@H](O)[C@H]4O[C@@H]4O[C@H](CO)[C@@H](O)[C@H](O)[C@H]4O)C(C)(C)[C@@H]3CC[C@]12C
AUC(0-t) (LC-MS/MS; healthy female volunteers, serum; oral, 3 g fermented red ginseng): 153 ± 92.1 ng·h/mL

COc1cc(CCC(C)=O)ccc1O
AUC(0-t) (female C57BL/6J mice, brain; oral, 200 mg/kg, 0 to 12 h, low-fat diet): 1.76 ± 0.27 nmol·min/g

CC(C)=CCC[C@](C)(O[C@@H]1O[C@H](CO)[C@@H](O)[C@H](O)[C@H]1O)[C@H]1CC[C@]2(C)[C@@H]1[C@H](O)C[C@@H]1[C@@]3(C)CC[C@H](O[C@@H]4O[C@H](CO)[C@@H](O)[C@H](O)[C@H]4O)C(C)(C)[C@@H]3CC[C@]12C
AUC(0-t) (LC-MS/MS; healthy female volunteers, serum; oral, 3 g fermented red ginseng): 22 ± 15.5 ng·h/mL

CC(O)CCc1ccc(O)cc1 (stereo not shown)
AUC(0-t) (normal-weight male C57BL/6J mice, brain; oral, 200 mg/kg, 0 to 12 h, low-fat diet): 34.8 ± 3.8 nmol·min/g

CNC(=O)c1ccc(-c2cnc3ncc(Cc4ccc5ncccc5c4)n3n2)cc1F
AUC(0-t) (human severe hepatic impairment; oral, 200 mg single dose, adjusted geometric mean): 7710 ng·h/mL

CC(=O)C=Cc1ccc(O)c(O)c1
AUC(0-t) (female C57BL/6J mice, brain; oral, 200 mg/kg, 0 to 12 h, low-fat diet): 0.101 ± 0.027 nmol·min/g

Cc1ccc(NC(=O)c2ccc(CN3CCN(C)CC3)cc2)cc1Nc1nccc(-c2cncc(-c3oncc3C)c2)n1
AUC(0-t) (Parkinson's disease patients, plasma; oral, 50.0 mg once daily, day 1, 7-day dosing, mean): 19300 ng·h/mL

A few entries again:
OCCc1ccc(O)c(O)c1
AUC(0-t) (normal-weight male C57BL/6J mice, brain; oral, 200 mg/kg, 0 to 12 h, low-fat diet): 0.024 ± 0.002 nmol·min/g

CC[C@H](C)[C@@H]1NC(=O)[C@H](Cc2ccc(O)cc2)NC(=O)[C@@H](N)CSSC[C@@H](C(=O)N2CCC[C@H]2C(=O)N[C@@H](CC(C)C)C(=O)NCC(N)=O)NC(=O)[C@H](CC(N)=O)NC(=O)[C@H](CCC(N)=O)NC1=O
AUC(0-t) (microdialysis, radioimmunoassay; C57BL/6J male mice, wild type, amygdala extracellular fluid; intranasal, 12 µg, total area from zero): 249 ± 69 pg·30 min/sample
